Assay results collected from several papers.
Numbered parts are unrelated; each lists some results of a single study. Substitutions count along the parent as printed.

Block 1
Target: RNA binding protein fox-1 homolog 2, RRM domain, GST-SBP tag (RBFOX2, Homo sapiens, UniProt O43251-10, residues 100-194)
Method: RNA Bind-n-Seq
Form: RNA
Matrix: in vitro
Concentration: 365 nM
Setting: natural RNA segment, single round, ends assumed
Baseline: no-protein control
Reading: higher = stronger binding
Quantity: RBNS enrichment (R)
Constant ends, left off below: GGGAGUUCUACAGUCCGACGAUC … UGGAAUUCUCGGGUGCCAA
Target sequence (chain): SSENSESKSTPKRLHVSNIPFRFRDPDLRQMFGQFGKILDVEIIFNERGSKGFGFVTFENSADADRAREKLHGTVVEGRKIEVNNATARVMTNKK
UUUUUUUUCCUCUUAACUCUGUCUGCUCUUAAAGCCAGGCAACCCAGUUUGGUCUCAGGCAUAGCCUGAGCAGAUCUUAGUUUUGCCCCCACCACCAUAGUUUUGUGCUA: 0.26
GCUUCUAGAAGACUGACUGUGGAUUAGCUUAGUGUACAGACUUUAAACAGCUGCUCCCUCAGCUCAGAGUAGGUUCCAUAUCCUUUUUUUUUGUUUUGUUUUAAUGGCUC: 1.72
UUGAACACGUGCACACAUGAGUUCCAAUUUUGCUUCCUUUUGUUAUAAUGUUUCAACAAACAGAAGGUAGACAACAGGUUGUUGGUGGACAUGCUUGGUGCUUUUGGUAU: 0.4
GCUGGAGUCCGGGCAGAGCUUUCUCAGUUGUAUUGCUACUCCAGACCUCACCAUAGGUUGGGGUCCCAGUAGGAAGGCUCAGGGUCUGUGCCAGCCCUGUCGGUGCUGCU: 0.462
AUGUUGGGCAAAUAUAUAUAAUUAUUUUUUCUGGUAAAUUCAUGUCAGUAAUUUGUUGAAGAGUUAACAAGAAAAGGUCUUUCUAGAUUGUGUCUAAGAUGAAAUAAAAU: 0.411
UUUUAGAGGAUAUAGUAUCGGCAUUGACAAAUCACGUAGAAACAAAGAAUGCUAUAGAUGACAACAGUAUUAAAUGUUACUCCUGAUUCUGCAGAACAGCUUUUGAAGAU: 0.71
UGGGAAUAGAAGAUCCAUUUGUCUUUGUGUAGAGCAAGCACGUUUUCCACCUCACUGUCUCCAUCCUCCACCUCUGAGAUGGACACUUAAGAGACGGGGCAAAUGUGGAU: 0.45
CUGAAGUUACCCUCUGAAAAAUAUUUUGUCUCUCUGACUUGAUUUCUAUAAAUGCUUUUAAAAACAAGUGAAGCCCCUCUUUAUUUCAUUUUGUGUUAUUGUGAUUGCUG: 0.907
CACACAUUCCUUUGAAAUAAGGUUUCAAUAUACAUCUACAUACUAUAUAUAUAUUUGGCAACUUGUAUUUGUGUGUAUAUAUAUAUAUAUAUGUUUAUGUAUAUAUGUGA: 0.871
GAGUCACUUCCAGUCCUCCUCAGAGGAUGUGAUGGUGGUAGGAGAGCCAACUCUGAUGGGAGGUGAGUUUGGGGACGAGGACGAAAGGCUAAUCACUAGAUUAGAAAACA: 1.73
CCACCAGCCGUUCCUGAUCUCAGGAGCCUUGAAGGGCUGGGCUCUUGCCUUCCUGGAGUAAAUAUUGGCACAGAUUUCAUUUGAGAGAACUCAGCCCCCUGGUCUAAGCU: 0.491
GUCUCUCUUGGGGUAAACUUGCUACCCCUGUGGUUGGGUCUAUGGUGGGAAAUGAAACAGUGUUCUGAUCCAUUGCCAAAGGAUGUAGGAAAACAGUUGGGUUUUGUUCA: 0.958

Block 2
Target: CCND1, cyclin fold, Cln2 fusion (human)
Method: yeast growth competition, sequencing
Matrix: yeast
Setting: weak parent motif
Baseline: not given
Reading: higher = stronger binding
Quantity: normalised enrichment score
Starting sequence: PKMYT1 docking peptide (human); SFEPRNLLSLFED; partner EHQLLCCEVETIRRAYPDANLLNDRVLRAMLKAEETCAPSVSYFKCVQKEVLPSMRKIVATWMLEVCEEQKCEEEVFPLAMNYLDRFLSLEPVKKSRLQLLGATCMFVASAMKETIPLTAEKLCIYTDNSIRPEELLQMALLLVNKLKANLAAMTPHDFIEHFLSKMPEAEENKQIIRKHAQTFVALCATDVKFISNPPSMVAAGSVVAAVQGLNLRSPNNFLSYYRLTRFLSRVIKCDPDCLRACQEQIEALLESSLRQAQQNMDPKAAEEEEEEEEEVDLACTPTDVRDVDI
SFEPRNLQSLFED [L8Q]: 0.815
SFEPRNMLSLFED [L7M]: 0.758
SFEPRNLLSLKED [F11K]: 0.619
SREPRNLLSLFED [F2R]: 0.366
SFEWRNLLSLFED [P4W]: 0.521
SFEPRNLLSKFED [L10K]: 0.05
SFEPRNLLSLFGD [E12G]: 0.899
SFEPFNLLSLFED [R5F]: 1.15
PFEPRNLLSLFED [S1P]: 0.191
SFEPRNLLSLFES [D13S]: 1.18
SFETRNLLSLFED [P4T]: 1.44
SFEPRNLLSRFED [L10R]: 0.887
SFEPRNLLILFED [S9I]: 0.24
SFEPRNLGSLFED [L8G]: 0.464
SFEPDNLLSLFED [R5D]: 1.19
SFEPRNLLHLFED [S9H]: 0.714
VFEPRNLLSLFED [S1V]: 1.16
SFEPRNLLSPFED [L10P]: 1.14
SFEPRWLLSLFED [N6W]: 1.71
SFEPRNLLSLFEW [D13W]: 0.397
SFEPRNLLSLFPD [E12P]: 0.888
SFEPRHLLSLFED [N6H]: 0.857
DFEPRNLLSLFED [S1D]: 0.3
SFEPRNLLGLFED [S9G]: 1.49
SFIPRNLLSLFED [E3I]: 0.149

Block 3
Target: Histone acetyltransferase KAT6A, winged helix 1, GST fusion (KAT6A, Homo sapiens, UniProt Q92794, residues 1-85)
Method: protein binding microarray
Form: double-stranded DNA, one strand shown
Matrix: in vitro
Concentration: not given
Setting: 8-mer, flanks averaged, mean of 2 arrays, mostly near background
Baseline: not given
Reading: higher = stronger binding
Quantity: E-score
Target sequence (chain): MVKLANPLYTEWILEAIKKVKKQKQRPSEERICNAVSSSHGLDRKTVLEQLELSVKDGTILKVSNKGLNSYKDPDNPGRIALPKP
ACTCTGCC: -0.0593
CCCTGGAA: -0.152
CCAAATAC: -0.282
ACCACTGG: -0.116
AGCCCAAG: -0.0993
CCAGTGAC: -0.184
GATTTAGA: -0.182
GCACCCAA: 0.000135
AAAAACCC: -0.0842
GCCACTGA: -0.231
CACAGGCG: 0.117
ATCGGATA: 0.0565
ACGGATTC: 0.215
AATTAATC: -0.0184
GTCATCAA: -0.0572
GACCAGCC: 0.00826
CACGAAAG: 0.0426
CATGTCCC: 0.0971
CACGACCG: 0.196

Block 4
Target: DDIT3, bZIP domain (human)
Method: DHFR protein complementation
Matrix: yeast
Setting: single substitutions, most at no-binding floor
Baseline: wild-type JUN-FOS pair
Reading: higher = stronger binding
Quantity: binding fitness
Starting sequence: JUN, bZIP domain (human); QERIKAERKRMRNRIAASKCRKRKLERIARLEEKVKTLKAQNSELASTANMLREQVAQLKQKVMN; partner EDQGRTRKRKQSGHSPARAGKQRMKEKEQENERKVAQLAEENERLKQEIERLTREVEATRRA
V56K: -0.34 natural log
M51N: 0.0295 natural log
E44N: -0.166 natural log
A29V: -0.276 natural log
Q55T: 0.0297 natural log
S43T: 0.144 natural log
N42H: -0.168 natural log
M51S: 0.0412 natural log
V35Y: 0.0834 natural log
N42S: -1.06 natural log
K34I: -0.0303 natural log
